# Assay results from different studies.
# ± marks the error that the study gave.
# Chain of UniProt Q9NSD7 (whole entry, looked up): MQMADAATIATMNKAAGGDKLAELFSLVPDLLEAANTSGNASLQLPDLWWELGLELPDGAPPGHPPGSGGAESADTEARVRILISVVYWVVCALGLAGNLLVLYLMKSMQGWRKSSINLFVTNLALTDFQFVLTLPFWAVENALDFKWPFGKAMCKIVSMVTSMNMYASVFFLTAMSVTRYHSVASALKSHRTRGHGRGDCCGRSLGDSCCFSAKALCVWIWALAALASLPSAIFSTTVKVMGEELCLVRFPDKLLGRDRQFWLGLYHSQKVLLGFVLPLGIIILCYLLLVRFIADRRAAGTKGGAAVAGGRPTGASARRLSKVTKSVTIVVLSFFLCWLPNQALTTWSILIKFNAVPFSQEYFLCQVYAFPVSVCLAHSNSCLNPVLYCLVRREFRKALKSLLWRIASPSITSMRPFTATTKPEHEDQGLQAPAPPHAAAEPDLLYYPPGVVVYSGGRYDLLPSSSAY
# Chain of UniProt P50406 (whole entry, looked up): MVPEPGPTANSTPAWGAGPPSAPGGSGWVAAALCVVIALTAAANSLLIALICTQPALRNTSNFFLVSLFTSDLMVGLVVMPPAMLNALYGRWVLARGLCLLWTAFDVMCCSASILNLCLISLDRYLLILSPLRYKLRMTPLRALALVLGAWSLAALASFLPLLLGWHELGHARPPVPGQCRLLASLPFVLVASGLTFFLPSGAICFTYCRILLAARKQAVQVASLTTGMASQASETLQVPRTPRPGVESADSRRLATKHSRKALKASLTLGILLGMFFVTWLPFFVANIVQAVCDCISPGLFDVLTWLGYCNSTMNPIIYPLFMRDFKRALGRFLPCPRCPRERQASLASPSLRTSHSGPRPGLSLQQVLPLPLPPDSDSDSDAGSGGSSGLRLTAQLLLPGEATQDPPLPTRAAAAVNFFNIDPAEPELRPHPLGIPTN
# Chain of UniProt Q96CA5 (whole entry, looked up): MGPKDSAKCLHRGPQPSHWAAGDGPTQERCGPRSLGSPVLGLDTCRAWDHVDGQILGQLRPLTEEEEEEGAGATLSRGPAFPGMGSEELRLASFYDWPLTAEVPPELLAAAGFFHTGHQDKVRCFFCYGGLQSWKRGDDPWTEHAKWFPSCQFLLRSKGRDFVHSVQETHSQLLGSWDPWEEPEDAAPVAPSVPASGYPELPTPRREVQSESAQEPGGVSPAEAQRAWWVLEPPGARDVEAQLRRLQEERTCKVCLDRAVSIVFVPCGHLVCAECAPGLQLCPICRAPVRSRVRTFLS
# Chain of UniProt P06239 (whole entry, looked up): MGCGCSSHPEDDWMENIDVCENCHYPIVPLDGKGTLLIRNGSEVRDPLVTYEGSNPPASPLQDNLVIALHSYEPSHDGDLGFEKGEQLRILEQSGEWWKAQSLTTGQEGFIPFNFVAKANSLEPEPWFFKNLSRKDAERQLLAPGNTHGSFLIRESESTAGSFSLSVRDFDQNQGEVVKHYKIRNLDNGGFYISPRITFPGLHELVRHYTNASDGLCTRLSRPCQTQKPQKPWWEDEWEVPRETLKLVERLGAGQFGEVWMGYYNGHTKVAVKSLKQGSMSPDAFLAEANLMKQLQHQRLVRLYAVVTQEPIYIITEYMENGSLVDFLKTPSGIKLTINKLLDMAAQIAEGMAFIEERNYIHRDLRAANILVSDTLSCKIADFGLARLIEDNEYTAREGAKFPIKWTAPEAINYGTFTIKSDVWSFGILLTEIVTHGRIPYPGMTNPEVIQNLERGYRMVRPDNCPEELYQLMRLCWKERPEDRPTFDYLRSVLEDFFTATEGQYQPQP
# Chain of UniProt P50391 (whole entry, looked up): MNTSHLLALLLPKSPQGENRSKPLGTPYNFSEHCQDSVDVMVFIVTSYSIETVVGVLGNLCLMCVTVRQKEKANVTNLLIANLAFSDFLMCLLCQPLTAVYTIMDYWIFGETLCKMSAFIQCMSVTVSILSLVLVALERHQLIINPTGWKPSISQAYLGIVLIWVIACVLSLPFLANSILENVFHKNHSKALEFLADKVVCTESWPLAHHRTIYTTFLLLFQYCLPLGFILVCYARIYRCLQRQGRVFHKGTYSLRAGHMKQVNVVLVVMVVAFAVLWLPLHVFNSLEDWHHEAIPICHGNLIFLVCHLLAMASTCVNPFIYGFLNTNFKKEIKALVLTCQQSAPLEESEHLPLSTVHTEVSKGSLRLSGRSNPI
# Chain of UniProt P22303 (whole entry, looked up): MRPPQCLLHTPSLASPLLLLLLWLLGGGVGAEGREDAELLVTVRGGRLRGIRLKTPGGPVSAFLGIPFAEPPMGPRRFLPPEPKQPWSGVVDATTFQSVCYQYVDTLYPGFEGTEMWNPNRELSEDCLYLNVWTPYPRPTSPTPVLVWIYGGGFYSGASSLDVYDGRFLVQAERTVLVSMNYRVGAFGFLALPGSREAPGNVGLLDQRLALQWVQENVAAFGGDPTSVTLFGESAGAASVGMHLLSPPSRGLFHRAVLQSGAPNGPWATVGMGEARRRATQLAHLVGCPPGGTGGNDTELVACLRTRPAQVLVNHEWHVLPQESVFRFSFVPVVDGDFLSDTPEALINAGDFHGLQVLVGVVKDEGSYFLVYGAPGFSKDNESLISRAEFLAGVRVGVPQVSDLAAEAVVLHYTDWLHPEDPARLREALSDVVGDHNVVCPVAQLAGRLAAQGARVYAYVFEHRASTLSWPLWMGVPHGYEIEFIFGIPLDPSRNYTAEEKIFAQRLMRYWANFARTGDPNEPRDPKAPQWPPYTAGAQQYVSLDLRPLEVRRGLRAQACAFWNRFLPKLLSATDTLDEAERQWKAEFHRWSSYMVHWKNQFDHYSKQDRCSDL
# Chain of UniProt P33533 (whole entry, looked up): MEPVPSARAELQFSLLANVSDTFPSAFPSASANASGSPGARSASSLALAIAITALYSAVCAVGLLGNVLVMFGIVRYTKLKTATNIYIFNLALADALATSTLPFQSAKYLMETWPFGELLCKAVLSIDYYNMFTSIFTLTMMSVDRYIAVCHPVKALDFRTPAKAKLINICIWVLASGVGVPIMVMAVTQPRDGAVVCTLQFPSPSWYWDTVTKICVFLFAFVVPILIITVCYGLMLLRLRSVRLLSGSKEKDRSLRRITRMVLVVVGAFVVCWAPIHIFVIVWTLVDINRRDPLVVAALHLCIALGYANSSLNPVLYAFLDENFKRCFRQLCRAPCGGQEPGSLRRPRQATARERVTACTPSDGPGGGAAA
Compound,target,test,system,setting,Ki [nM]
CSC[C@H]1CN(Cc2c[nH]c3c(N)ncnc23)C[C@@H]1O,"MTA/SAH nucleosidase (Campylobacter jejuni subsp. jejuni, UniProt Z9IB28FKP7)","enzyme activity, inhibitor",,slow-onset tight binding,2.9
CNC(C)C(=O)NC1COC2CCC(C(=O)NCc3ccccc3)N2C1=O (mixture of isomers),"Baculoviral IAP repeat-containing protein 7 (Homo sapiens, UniProt Q96CA5)","binding, fluorescence polarization competition",BIR domain,with: AVPIAQK-rhodamine probe,> 25000
COc1cc2c(cc1OC)C(=O)C(=Cc1ccc(N3CC[N+](C)(C)CC3)cc1)C2,"ACHE (Homo sapiens, UniProt P22303)","enzyme activity, inhibitor",,,17
CC[C@H](C)[C@@H]1NC(=O)[C@H](C(C)C)NC(=O)[C@H](C)NC(=O)[C@H](CCCNC(=N)N)NC(=O)[C@H]([C@@H](C)CC)NC(=O)[C@](C)(NC(=O)[C@H](CCC(=O)O)NC(=O)[C@H](CCCNC(=N)N)NC(=O)CNC(=O)[C@H](CS)NC(=O)[C@H](CC(C)C)NC(=O)[C@H](CCCNC(=N)N)NC(=O)[C@@H](NC(=O)CNC(=O)[C@H](Cc2ccc(O)cc2)NC(=O)[C@@H]2CCCN2C(=O)[C@H](C)NC(=O)[C@H](C)NC(=O)[C@@H](N)CCCNC(=N)N)C(C)C)CCCC=CCCCCCC[C@@](C)(C(=O)N[C@@H](CS)C(=O)NCC(=O)NCC(=O)N[C@@H](CO)C(=O)N[C@@H](CCCNC(=N)N)C(=O)N[C@@H](Cc2c[nH]c3ccccc23)C(=O)O)NC(=O)[C@H](Cc2ccccc2)NC1=O,"RXFP3 (Homo sapiens, UniProt Q9NSD7)",ligand displacement,,,66.1
Cc1cc(O)cc(C)c1CC(N)C(=O)NC1CCNc2c(Br)cc(Cc3ccccc3)cc21 (stereo not drawn),"Oprd1 (Rattus norvegicus, UniProt P33533)","ligand displacement, radioligand",,cell membranes,2.4
N[C@@H](Cc1ccccc1)P(=O)(O)O,"PAL1 (Petroselinum crispum, UniProt P24481)","enzyme activity, inhibitor, absorbance",,pH 8.8,660
COc1ccc2ccc3c(c2c1)C=[N+]1C2CCCCC2[N+]2=Cc4ccc(OCCN5CCCCC5)cc4[O][Au-]21[O]3.F[P-](F)(F)(F)(F)F (stereo not drawn),Klebsiella pneumoniae glutathione reductase,competitive inhibitor,carbapenem-resistant,with: GSSG,746
COc1ccc2c(c1)c(CCN(C)C)cn2S(=O)(=O)c1ccccc1,"HTR6 (Homo sapiens, UniProt P50406)","ligand displacement, radioligand",,cell membranes,11
CNC(=O)C1CCN(c2ccccc2NC(=O)c2ccc(-c3cc(O)ccc3C)c(C)n2)CC1,"LCK (Homo sapiens, UniProt P06239)","cell-free assay, TR-FRET",,,1
COc1ccc(S(=O)(=O)N(CC(C)C)C[C@@H](O)[C@H](Cc2ccccc2)NC(=O)O[C@H]2CO[C@H]3O[C@@H]4OCC[C@@H]4[C@H]32)cc1,"Gag-Pol polyprotein, protease (Human immunodeficiency virus type 1 group M subtype B, UniProt P03367, C567A/C595A/L533I/L563I/L576V/Q507K)","protease activity, inhibitor",,,7.2 ± 1.4
CC(C)C[C@H](NC(=O)[C@H](CCCNC(=N)N)NC(=O)[C@@H](NC(=O)[C@H](CC(=O)O)NC(=O)[C@H](CCC(N)=O)NC(=O)[C@@H](NC(=O)[C@@H](NC(=O)[C@H](CCCNC(=N)N)NC(=O)[C@H](CO)NC(=O)[C@@H](N)CO)[C@@H](C)O)C(C)C)[C@@H](C)O)C(=O)O,"Na(+)/H(+) exchange regulatory cofactor NHE-RF2, PDZ2 domain (Homo sapiens, UniProt Q15599)",,,,1700 ± 400
CC(=O)N[C@@H](CCCNC(=N)N)C(=O)N[C@@H](Cc1ccc(O)cc1)C(=O)N[C@@H](CCCNC(=N)NC(=O)NCCCCN)C(=O)N[C@@H](CC(C)C)C(=O)N[C@H](CCCNC(=N)N)C(=O)N[C@@H](Cc1ccc(O)cc1)C(N)=O,"NPY4R (Homo sapiens, UniProt P50391)","ligand displacement, radioligand",,,568

# A few entries again:
Compound,target,test,system,setting,Ki [nM]
CC(C)C[C@H](NC(=O)[C@H](CCCNC(=N)N)NC(=O)[C@@H](NC(=O)[C@H](CC(=O)O)NC(=O)[C@H](CCC(N)=O)NC(=O)[C@@H](NC(=O)[C@@H](NC(=O)[C@H](CCCNC(=N)N)NC(=O)[C@H](CO)NC(=O)[C@@H](N)CO)[C@@H](C)O)C(C)C)[C@@H](C)O)C(=O)O,"Na(+)/H(+) exchange regulatory cofactor NHE-RF2, PDZ2 domain (Homo sapiens, UniProt Q15599)",,,,1700 ± 400
CC(=O)N[C@@H](CCCNC(=N)N)C(=O)N[C@@H](Cc1ccc(O)cc1)C(=O)N[C@@H](CCCNC(=N)NC(=O)NCCCCN)C(=O)N[C@@H](CC(C)C)C(=O)N[C@H](CCCNC(=N)N)C(=O)N[C@@H](Cc1ccc(O)cc1)C(N)=O,"NPY4R (Homo sapiens, UniProt P50391)","ligand displacement, radioligand",,,568
